Published values from different studies.
Every numbered part comes from another study and shows a few of its results, in no order.

Series 1
Target: RING finger protein unkempt homolog, zinc fingers 1-6, GST-SBP tag (UNK, Homo sapiens, UniProt Q9C0B0, residues 30-357)
Technique: RNA Bind-n-Seq
Form: RNA
Medium: in vitro
Tested at: not given
Setting: RNA with constant flanks, human and mouse sites, ends assumed
Reference: input RNA pool
Direction: higher = stronger binding
Measurement: bound/input enrichment
All sequences stand within: GGGAGUUCUACAGUCCGACGAUC … CAACAGAGGAUUGAGCAUCA
Residues (chain): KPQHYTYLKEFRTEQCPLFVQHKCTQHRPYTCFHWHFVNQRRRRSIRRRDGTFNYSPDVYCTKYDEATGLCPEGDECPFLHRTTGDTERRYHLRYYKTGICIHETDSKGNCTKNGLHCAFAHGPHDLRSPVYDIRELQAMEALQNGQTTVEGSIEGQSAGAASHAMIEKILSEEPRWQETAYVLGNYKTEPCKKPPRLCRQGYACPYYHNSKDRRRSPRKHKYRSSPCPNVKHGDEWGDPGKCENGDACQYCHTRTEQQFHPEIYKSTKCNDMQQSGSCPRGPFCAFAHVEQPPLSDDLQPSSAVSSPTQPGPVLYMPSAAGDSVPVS
Oligonucleotide = GAGAGGGAUGGUGGGACCAGUUACUCUCCACAAGAAAAUUCACACAACCACAGUGCUCUUCAUAGUUCAAAUUCACAUUCUUCUAAUCCAAGCAAUAACCCAAGCAAAACUUCAGAUGCA; value = 1.73 ratio
Oligonucleotide = UUGCGGAAAGCCCAAGGGCAGAGCAUACUUGAAGUCCUGAGGAUAAUUCAGUAUUGCACAGAAUCCCUCGGGCAGCCUCACUGCUUCCACCCACCGUAUAUACUUUUCCUACUGGAACUU; value = 0.0839 ratio
Oligonucleotide = GGAGCCAGGAUUGUUGGUCAUUUGACUCAUGCCUUGAAGCAAGGAGAAUACGGUCUUGCCAGUAUUUGCAAUGGAGGAGGAGGUGCUUCUGCCAUGCUAAUUCAGAAGCUGUAGACAACC; value = 0.203 ratio
Oligonucleotide = CAUGGGUUUUAAGUGCUUGUGGCUCUCUGAAGCUUAAGUGAGGAUUUCCUUGCAAUGAGUAGAAUUUCCCUUCUGUCCCUUGUCACAAGUUUAAAAACCUCACAGCUUGUAUAAUGUAAU; value = 0.191 ratio
Oligonucleotide = GCAAGGCUAGAAGAGCUAUCAGACUCAGAUGAUGAACUUGACUGAAAACACACCAAGUCACUGUCAUUUUCCCUUGUGCCUCGGCCAGCUUCGCUCAGAUCCAGCACACCCUCUUGCUAC; value = 0.0988 ratio
Oligonucleotide = GGAAUGGAUGCCCUUCCUUACAUUGACCUUAUCGACCCAGCUGAGAUCGACCUUCUGUUGAUCAGUCAUUUCCAUUUGGAUCACUGUGGAGCCCUGCCCUGGUUCCUUCAGAAGACAAGU; value = 0.157 ratio
Oligonucleotide = GCAACAAGUGAAGAAGAAGCUAAAUUUGGUGCCAGACGCUUAGCCCGUAGUCUGCAGAAACUAGGUUUUCAGGUAAUAUUUACAGAUUUUAAGGUUGUUAACGUUCUGGCAGUGUGUAAC; value = 1.38 ratio
Oligonucleotide = UUAUAAGCGGCGUCUUCGAACGCGCCGCGGCAGCCAUGUUGAUCGUGGCUAGCACAGGGGCCGGCACCAGCGGGUUUUAGAAGCAGGUGUCAUGAUGUUGUCCGCGGUGUUGAGGAGAAC; value = 0.357 ratio
Oligonucleotide = CAGGCCGACUACGUGCCAAGUGACCAGGACCUGCUUCGCUGCCGUGUCCUGACCUCUGGAAUCUUUGAGACCAAGUUCCAGGUGGACAAAGUCAACUUCCACAUGUUCGAUGUGGGCGGC; value = 0.0669 ratio
Oligonucleotide = CAGCCUUAAGCACAAUUAAUUAAGAGUGAAACGUAAUUGUACAAGCAGUUGGUCACCCACCAUAGGGCAUGAUCAACACCGCAACCUUUCCUUUUUCCCCCAGUGAUUCUGAAAAACCCC; value = 0.299 ratio
Oligonucleotide = GAUGGCAAUGGCCAGGAGGCCUAUGCCUCAAGCUGUAACAGUGGCACGUCCUACAAUUCCAUUAGCUCAGUGGUGUCCCGGUGAGGGCAGCCUUGGCUUGGGUAGGGUCUUUAUGGACUG; value = 0.153 ratio

Series 2
Target: Histone acetyltransferase KAT6A, winged helix 2, GST fusion (KAT6A, Homo sapiens, UniProt Q92794, residues 85-181)
Technique: protein binding microarray
Form: double-stranded DNA, one strand shown
Medium: in vitro
Tested at: not given
Setting: 8-mer, flanks averaged, mean of 2 arrays, mostly near background
Reference: not given
Direction: higher = stronger binding
Measurement: E-score
Residues (chain): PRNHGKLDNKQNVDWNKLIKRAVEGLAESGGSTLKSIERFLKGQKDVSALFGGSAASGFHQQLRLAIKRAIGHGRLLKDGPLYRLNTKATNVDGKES
Oligonucleotide = TGGGGACA; value = -0.00264
Oligonucleotide = AGGAGAAG; value = -0.102
Oligonucleotide = CCAGGACG; value = 0.157
Oligonucleotide = AATATGAG; value = 0.0454
Oligonucleotide = GCGACTGA; value = 0.0546
Oligonucleotide = GCTTAAAC; value = -0.0762
Oligonucleotide = CGGACTGC; value = 0.136
Oligonucleotide = GACTAGCA; value = -0.0867
Oligonucleotide = CATGAACC; value = -0.132
Oligonucleotide = ACAGAAAC; value = 0.0649
Oligonucleotide = AACATGGT; value = -0.0891
Oligonucleotide = GACTCGCA; value = 0.125
Oligonucleotide = GCAGTCCA; value = -0.0574
Oligonucleotide = CTCCAGCA; value = 0.0924
Oligonucleotide = AAGTTGCA; value = -0.15
Oligonucleotide = CAAGTTTA; value = -0.00839
Oligonucleotide = GATACCAC; value = 0.0979
Oligonucleotide = AGTCTTCA; value = -0.0823
Oligonucleotide = AATGATAA; value = 0.0667
Oligonucleotide = ATGCCGGC; value = 0.248
Oligonucleotide = GCGATTAA; value = 0.161

Series 3
Target: Fragile X messenger ribonucleoprotein 1, C-terminal low-complexity region (Fmr1, Mus musculus, UniProt P35922)
Technique: RNA Bind-n-Seq
Form: RNA
Medium: in vitro
Tested at: 200 nM
Setting: whole 134-nt RNA, ends assumed
Added: 150 mM LiCl
Reference: input library
Direction: higher = stronger binding
Measurement: log2 enrichment
Each molecule: 7-deaza-guanosine replaces G
All sequences stand within: GGGAGUUCUACAGUCCGACGAUC … UGGAAUUCUCGGGUGUCAAGG
Oligonucleotide = UGGGAGGUGGAUUUUGUAUAUUUUUUUAGCUCAUUUCCAGGGGUGGGAAUUUUUUUUUAAUAUGUGUCAUGAAUAAAGUUGUUUUUGAAA; value = 0.376
Oligonucleotide = UCCUCAAGUCCUGUGCUACACAUCGUAUGUACCGAAUCGGUGGGUGGGUGGAAAGUAUUAUGUUACGCCGUUCGGAUCUGCACUUCCAGC; value = 0.794
Oligonucleotide = CAAGUCCUGUGCUACACAUCGUAUGUACCGAAUCGGGUUUUUGGGAAAGGGAGGGAAAGUAUUAUGUUACGCCGUUCGGAUCUGCACUUC; value = -0.441
Oligonucleotide = AGUCCUGUGCUACACAUCGUAUGUACCGAAUCGGGGUUUUGGGGUUUUGGUUUUGGGGAAAGUAUUAUGUUACGCCGUUCGGAUCUGCAC; value = -1.57
Oligonucleotide = CUCAAGUCCUGUGCUACACAUCGUAUGUACCGAAUCGGUUUGGGUUUGGUUUGGAAAGUAUUAUGUUACGCCGUUCGGAUCUGCACUUCC; value = -0.185
Oligonucleotide = CAAGUCCUGUGCUACACAUCGUAUGUACCGAAUCGGGAAAGGGGAAAGGGAAAGGGAAAGUAUUAUGUUACGCCGUUCGGAUCUGCACUU; value = -0.817
Oligonucleotide = UCAAGUCCUGUGCUACACAUCGUAUGUACCGAAUCGGGAAGGGGAAGGGGAAGGAAAGUAUUAUGUUACGCCGUUCGGAUCUGCACUUCC; value = -1.38
Oligonucleotide = CCUCAAGUCCUGUGCUACACAUCGUAUGUACCGAAUCGGGGUGGGUGGGUGGGAAAGUAUUAUGUUACGCCGUUCGGAUCUGCACUUCCA; value = 1.12
Oligonucleotide = AGUCCUGUGCUACACAUCGUAUGUACCGAAUCGGGGUGGGGAAAGGGGAAAAAGGGGAAAGUAUUAUGUUACGCCGUUCGGAUCUGCACU; value = 0.124
Oligonucleotide = AGUCCUGUGCUACACAUCGUAUGUACCGAAUCGGGGAGGGGAGGGGAAAAAAAGGGGAAAGUAUUAUGUUACGCCGUUCGGAUCUGCACU; value = 0.701
Oligonucleotide = UGGGAGGUGGAUUUUGUUUAUUUUUUUAGCUCAUUUCCAGCGGUGGGAAUUUUUUUUUAAUAUGUGUCAUGAAUAAAGUUGUUUUUGAAA; value = -0.0694

Series 4
Target: Interferon regulatory factor 5, full length, phosphomimetic (IRF5, Homo sapiens, UniProt Q13568-2, residues 1-514, S451D/S453D/S456D/S462D)
Technique: protein-binding microarray
Form: double-stranded DNA, one strand shown
Medium: in vitro
Tested at: 940 nM top
Setting: 60-bp whole probe
Added: salmon DNA 0.4 mg/ml
Reference: random background probes
Direction: higher = stronger binding
Measurement: fitted relative affinity
All sequences stand within: GCCTAGCAC … GTCTTGATTCGCTTGACGCTGCTG
Oligonucleotide = GACGGACTGGGGACTGGGAACGTGCTA; value = -0.147 z-score
Oligonucleotide = TCACCTTTCCTTTGCCTACTGTGCTAG; value = 2.11 z-score
Oligonucleotide = GAAGGTATCGGTTTCGGGACGTGCTAG; value = 8.52 z-score
Oligonucleotide = GACGAACTGAGTAACGAGACGTGCTAG; value = -0.19 z-score
Oligonucleotide = TACGGTATCGACACTGGGGACGTGCTA; value = 3.92 z-score
Oligonucleotide = GACGAACTGAGACTGGATACGTGCTAG; value = -0.345 z-score
Oligonucleotide = GACGGTTTCGGTTTCGGCACGTGCTAG; value = 13.3 z-score
Oligonucleotide = GGCGATTTCAGTTTCGAGACGTGCTAG; value = 5.42 z-score
Oligonucleotide = TTAGATTTCGGGTATCAATTAGTGCTA; value = 2.04 z-score
Oligonucleotide = TCATATACACACTATAGTACTGTGCTA; value = 0.642 z-score
Oligonucleotide = TTAGATTTCAGGTATCGATTAGTGCTA; value = 3.32 z-score
Oligonucleotide = TTAGAAATGGGGTTTCGATTAGTGCTA; value = 5.63 z-score
Oligonucleotide = TTAGGACTGGATACTGGGTTAGTGCTA; value = -0.544 z-score
Oligonucleotide = TTAGAGCTGAGTTTCGATTAGTGCTAG; value = 7.27 z-score
Oligonucleotide = GACGATATCGGTACTGGAGACGTGCTA; value = 0.201 z-score
Oligonucleotide = CCCTGGCTCCCTATAAAAGGGTGCTAG; value = -0.187 z-score
Oligonucleotide = GACGACCTGAGTCTCGAGACGTGCTAG; value = 0.741 z-score
Oligonucleotide = TCACGTGACCCTCTCAAACTGTGCTAG; value = -0.101 z-score
Oligonucleotide = GAGGGACTGGGGTATCGGGACGTGCTA; value = 0.577 z-score
Oligonucleotide = GACGTTATCGACTATCGGGACGTGCTA; value = 0.0993 z-score
Oligonucleotide = TTAGGTAACCTTCTCCTTTAGTGCTAG; value = 0.258 z-score

Series 5
Target: Sal-like protein 4, full length isoform A (SALL4, Homo sapiens, UniProt Q9UJQ4, residues 1-1053)
UniProt Q9UJQ4, sequence (whole entry, looked up): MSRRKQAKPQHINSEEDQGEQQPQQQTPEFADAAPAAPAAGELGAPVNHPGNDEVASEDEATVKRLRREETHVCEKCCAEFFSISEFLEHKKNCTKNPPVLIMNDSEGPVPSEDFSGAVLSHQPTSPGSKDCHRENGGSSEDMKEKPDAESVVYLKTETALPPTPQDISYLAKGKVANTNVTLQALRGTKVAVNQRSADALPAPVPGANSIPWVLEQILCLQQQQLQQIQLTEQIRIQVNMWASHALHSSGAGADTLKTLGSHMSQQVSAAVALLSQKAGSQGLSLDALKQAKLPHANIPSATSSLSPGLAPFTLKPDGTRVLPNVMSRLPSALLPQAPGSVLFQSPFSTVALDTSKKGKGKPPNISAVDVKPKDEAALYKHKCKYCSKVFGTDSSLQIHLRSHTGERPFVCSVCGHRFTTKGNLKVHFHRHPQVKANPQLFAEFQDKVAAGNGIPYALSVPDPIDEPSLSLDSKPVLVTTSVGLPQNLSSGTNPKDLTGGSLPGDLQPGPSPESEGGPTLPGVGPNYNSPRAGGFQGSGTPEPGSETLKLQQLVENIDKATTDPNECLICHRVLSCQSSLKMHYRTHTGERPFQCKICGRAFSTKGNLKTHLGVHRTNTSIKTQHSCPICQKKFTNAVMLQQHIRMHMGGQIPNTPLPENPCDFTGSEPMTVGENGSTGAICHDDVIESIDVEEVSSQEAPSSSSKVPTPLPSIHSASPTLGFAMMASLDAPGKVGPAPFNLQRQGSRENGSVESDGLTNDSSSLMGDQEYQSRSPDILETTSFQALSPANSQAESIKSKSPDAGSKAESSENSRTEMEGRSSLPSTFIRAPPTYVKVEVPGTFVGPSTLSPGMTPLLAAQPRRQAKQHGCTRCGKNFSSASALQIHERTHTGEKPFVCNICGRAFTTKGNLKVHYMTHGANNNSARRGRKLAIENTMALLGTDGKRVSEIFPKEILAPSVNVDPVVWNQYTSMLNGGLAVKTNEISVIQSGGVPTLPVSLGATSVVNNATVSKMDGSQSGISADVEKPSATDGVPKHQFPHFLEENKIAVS
Technique: universal PBM
Form: double-stranded DNA, one strand shown
Medium: in vitro
Tested at: 600 nM
Setting: 8-mer, flanks averaged, mean of replicates
Direction: higher = stronger binding
Measurement: E-score
Oligonucleotide = AGTTGCAG; value = -0.0419
Oligonucleotide = CGTCAACG; value = -0.104
Oligonucleotide = AAACAGCA; value = 0.12
Oligonucleotide = GCCTGCTA; value = -0.113
Oligonucleotide = GCTTCCCC; value = -0.267
Oligonucleotide = CCGTTTTC; value = -0.17
Oligonucleotide = AGCAGGAA; value = 0.0183
Oligonucleotide = CTGCGCCC; value = -0.419
Oligonucleotide = GTCCAGCA; value = -0.173
Oligonucleotide = CATGCGAA; value = 0.0903
Oligonucleotide = ATCCACAG; value = -0.0345
Oligonucleotide = CTATGGAA; value = 0.196
Oligonucleotide = CGCCGGTC; value = -0.397
Oligonucleotide = GAAGGTAC; value = -0.00193
Oligonucleotide = ACGTGTCA; value = 0.0474
Oligonucleotide = ACAGCTAC; value = -0.0439
Oligonucleotide = TCGGCCAA; value = -0.00983
Oligonucleotide = CACCGCAC; value = -0.236
Oligonucleotide = GGGCGTTA; value = -0.0552
Oligonucleotide = CTAAGTAC; value = 0.08
Oligonucleotide = ATTGGACA; value = 0.125
Oligonucleotide = ACCTGTTC; value = -0.0479
Oligonucleotide = ACCCATAA; value = 0.19
Oligonucleotide = ATAGTAAG; value = 0.186
Oligonucleotide = CCACCTCC; value = -0.135
